Experimental data collected from several papers.
Lines come from different studies, so protocols differ. “And” joins repeats or separate records; there may be more than shown. ± marks the error that the study gave.

CO[C@H]1CC[C@H](N2C(=O)CNc3ncc(-c4ccc(C(C)(C)O)nc4)nc32)CC1 — p4EBP1 change from baseline (flow cytometry; stimulated T cells, human, blood; 60 mg single dose, 3 h, median; reference: baseline): -44.3%
CN[C@@H]1COc2c(S(=O)(=O)NC(=O)Nc3c4c(cc5c3CCC5)CCC4)cnn2C1 — inhibition (refers to: IL-1β; human participants, whole blood ex vivo; 300 mg twice daily, multiple doses, 144 h, with: LPS/ATP; reference: baseline): 96.2%
N#Cc1ccc2c(c1)[C@H]1CCCN(C(=O)c3ccc4[nH]cnc4c3)[C@H]1C2 — plasma level (refers to: androstenedione; human male, Phase II trial; oral, 80 mg once daily, last treatment, HPA axis, mean): 7.84 nmol/L
N#Cc1ccn2c(-c3ccncc3)c(-c3ccc(F)cc3)nc2c1 — log2 fold change (kinase binding, competitor, MIB/MS competition, refers to: YAK1; Candida albicans cell lysate; 10 µM; reference: DMSO): 0.544
CC(C)[C@H](NC(=O)[C@H](Cc1ccc(O)cc1)NC(=O)[C@H](Cc1ccc(O)cc1)NC(=O)[C@@H]1CCCN1C(=O)[C@H](CCC(=O)O)NC(=O)[C@H](CCC(=O)O)NC(=O)[C@H](Cc1c[nH]c2ccccc12)NC(=O)[C@@H]1CCCN1C(=O)[C@@H](NC(=O)[C@H](CCC(N)=O)NC(=O)c1ccc2c(c1)C(=O)OC21c2ccc(O)cc2Oc2cc(O)ccc21)C(C)C)C(=O)N[C@H](C(=O)N[C@@H](CCCCN)C(=O)N[C@@H](CCCCN)C(=O)N[C@@H](CO)C(=O)N[C@@H](CO)C(=O)NCC(=O)NCC(N)=O)C(C)C — share of responses (nerve branching; human head and neck surgery, nerves; 500 mg, much improved; reference: white light): 0%
O=C1Nc2cc3[nH]nc(-c4ccncc4)c3cc2CN1Cc1ccccc1 — stable disease, best response (RECIST v1.1; human, relapsed or refractory advanced solid tumours; intravenous, 3.6 mg/kg): 100%
CCOc1c([C@H](C)n2nc(C)c3c(N)ncnc32)cc(Cl)c(F)c1[C@@H]1CNC(=O)C1 — percent change in level (Olink proximity extension, refers to: IL2-RA; human FL or MZL patients, plasma; dose not given, week 8 day 1, once-daily dosing; reference: baseline): -43%
CCc1c(C)nc(-c2ccc(Cl)s2)nc1Nc1ccc(CC(=O)O)cc1 — PPAR-gamma expression (C57BL/6J mouse, MCD diet MASH model, liver; intraperitoneal, 0.3 mg/kg daily, MCD diet 6 weeks, dosed final two weeks; reference: untreated): no effect
N#Cc1ccc2c(c1)[C@H]1CCCN(C(=O)c3ccc4[nH]cnc4c3)[C@H]1C2 — change in fasting insulin (human, plasma; 160 mg, day 15, 360 h; reference: placebo and baseline): 7.5%
CC(C)[C@H](C(=O)Nc1ccc(C(=O)NO)cc1)c1ccccc1 — tumour volume (MRI volumetry; human, left parieto-occipital meningioma; dose not given, day 1512 post-treatment): 0.111 cm³
CCN1CCN(Cc2ccc(Nc3ncc(F)c(-c4cc(F)c5nc6n(c5c4)[C@H](C)CCC6)n3)nc2)CC1 — Non-CR/non-PD (RECIST v1.1; advanced solid tumour patients; Phase Ia monotherapy): 0%
OC(CCN1CCCCC1)(c1ccccc1)C1CC2C=CC1C2 (stereo not shown) — change in EEG Beta1-power Pz-O2 (resting-state EEG; healthy elderly humans; oral, 4 mg, eyes closed, LS mean; reference: baseline): -15.8%
CC1(C)CCC(c2ccc(Cl)cc2)=C(CN2CCN(c3ccc(C(=O)NS(=O)(=O)c4ccc(N[C@H](CCN5CCOCC5)CSc5ccccc5)c(S(=O)(=O)C(F)(F)F)c4)cc3)CC2)C1 — EC50 (cell kill, PI exclusion flow cytometry; nodal neoplastic cells, human; 24 h): 9.4 nM
COc1cc(O)c(CC=C(C)C)c(O)c1C(=O)/C=C/c1ccc(O)cc1 — blood glucose (glucose tolerance test; male Tac:SW germ-free mice, high-fat diet; in diet, 60 mg/kg/day, 10 weeks, baseline): 134 mg/dL
NCC(=O)Nc1cncc(-c2nn3c(=O)cc(N4CCNCC4)nc3s2)c1 — inhibition (ADP-induced platelet aggregation, light transmission aggregometry; human, stable CAD on aspirin, ex vivo platelets; subcutaneous, 0.05 mg/kg, 120 min post-dose, median value, with: ADP 20 µM): 5.7%
C[C@H]1O[C@@H](O[C@H]2CC[C@@]3(C)[C@@H](CC[C@]4(C)[C@@H]3C=C[C@]35OC[C@@]6(CCC(C)(C)C[C@H]63)[C@@H](O)C[C@]54C)[C@]2(C)CO)[C@H](O)[C@@H](O[C@@H]2O[C@H](CO)[C@@H](O)[C@H](O)[C@H]2O)[C@H]1O — triglyceride level (chronic-plus-binge ethanol mice, plasma; oral, 15 mg/kg/day for 7 d, 168 h): 0.8 mM and 0.744 mM and 0.715 mM and 0.832 mM and 0.686 mM and 0.914 mM
COc1ccc(F)cc1C(=O)NCc1ccc(-c2nn([C@@H](C)C(F)(F)F)c(N)c2C(N)=O)cc1 — best overall response CR (relapsed/refractory CLL patients; dose not given, patients with longitudinal samples): 2%
CN[C@@H](C)C(=O)N[C@H]1CN(S(=O)(=O)c2cccc(S(=O)(=O)N3CC[C@H]4CC[C@@H](C(=O)NC(c5ccccc5)c5ccccc5)N4C(=O)[C@@H](NC(=O)[C@H](C)NC)C3)c2)CC[C@H]2CC[C@@H](C(=O)NC(c3ccccc3)c3ccccc3)N2C1=O — best response progressive disease (RECIST 1.1; advanced pancreatic cancer patients; dose not given, efficacy-evaluable, with: AG): 40%
COc1ccc2c(c1)CN(Cc1ccc(C(=O)O)cc1)CCS2 — forelimb grip strength (exercised mdx mice; 10 mg/kg, 2 weeks): 0.173 ± 0.007 kgf
C[C@H]1C[C@H]2CSC(N)=N[C@@]2(c2nc(NC(=O)c3ccc(OC(F)F)cn3)cs2)CO1 — percent change from baseline (refers to: Aβ1-40; healthy adults, plasma; 15 mg once daily, day 2; reference: placebo): -58%
O=C(O)CNC(=O)Cc1ccccc1 — sarcomere length (ventricular cardiomyocytes, C57BL/6 mouse; dose not given, 0.628 s): 1.7 µm
Cc1ccc([C@@H]2O[C@H](CO)[C@@H](O)[C@H](O)[C@H]2O)cc1Cc1ccc(-c2ccc(F)cc2)s1 — change in fasting plasma glucose (Japanese type 2 diabetes patients; 400 mg, day 2; reference: day 1): -41 mg/dL
CC(=O)Nc1ccc(O)cc1 — gene expression (RNA-seq pathway analysis, refers to: drug degradation pathway genes; liver spheroids; top non-cytotoxic, 10 d): decreased
N=C(N)NCCC[C@H](NC(=O)[C@H](CCCNC(=N)N)NC(=O)[C@H](CCCCN)NC(=O)[C@H](CCC(N)=O)NC(=O)[C@H](CCCCN)NC(=O)[C@H](Cc1ccc(O)cc1)NC(=O)[C@@H](N)CCCCN)C(=O)N[C@@H](CO)C(=O)N[C@@H](Cc1ccc(O)cc1)C(=O)N[C@@H](CCCCN)C(=O)O — median tactile threshold change (dentin hypersensitivity patients; 2.5 µg/tooth single, day 22, unit not given; reference: baseline): -0.5
CNCc1cc(-c2ccccc2F)n(S(=O)(=O)c2cccnc2)c1 — inhibition (indomethacin-induced gastric lesions; rat; oral, 2 mg/kg; reference: vehicle): 59%
O=C(O)C1=CC(=C(c2ccc(O)c(C(=O)O)c2)c2ccc(O)c(C(=O)O)c2)C=CC1=O — CD3+ T cell number (flow cytometry; C57BL/6J mouse MC-38 tumour, tumour-infiltrating lymphocytes; peritumoral, dose not given, 2 cycles; reference: vehicle): no effect
COc1cc(Nc2ncc3c(n2)-c2ccc(Cl)cc2C(c2c(F)cccc2OC)=NC3)ccc1C(=O)O — relative tumour volume T/C (mouse, NB-EBc1 neuroblastoma xenograft; oral, 20.8 mg/kg, day 7; reference: vehicle): 0.73
Cc1cn(-c2ccc3n(c2=O)CCN([C@@H](C)[C@@H]2CC[C@H](c4cc(F)c(Cl)cc4C(F)(F)F)O2)C3=O)cn1 — change in CSF level (refers to: Aβ37; human, cerebrospinal fluid; 150 mg single dose, Tmax; reference: placebo-adjusted baseline): 139%
N#Cc1ccc2c(-c3ccncc3)c(-c3ccc(F)cc3)nn2c1 — log2 fold change (kinase binding, competitor, MIB/MS competition, refers to: KIN2; Candida albicans cell lysate; 100 nM; reference: DMSO): -0.347
C[C@H](Oc1ccc(Br)cc1-c1ccon1)C(=O)O — difference from placebo (last response latency; human, tibialis anterior muscle; 50 mg, 15 Hz, SAD): 0.843%
CCCCCN1C[C@H](O)[C@@H](O)[C@H](O)[C@@H]1CO — decreased sphingolipid species (Hexb-/- mouse, cerebral cortex; 300 mg/kg/day, unit not given; reference: 30 mg/kg/day): 24
C=Cc1c(C)c2cc3nc(c(CC(=O)O)c4[nH]c(cc5nc(cc1[nH]2)C(C)=C5CC)c(C)c4C(=O)O)[C@@H](CCC(=O)O)[C@@H]3C — CD4+ T cells (flow cytometry; mouse, 4T1 tumour-bearing; dose not given, 1 h): 1.86% and 1.53% and 1.48%
Cc1cc(C)c(CNC(=O)c2cc(Cl)c3c(c2C)O[C@@](C)([C@H]2CC[C@H](N(C)C)CC2)O3)c(=O)[nH]1 — best overall response PD (modified 2009 ATLL criteria; human, relapsed/refractory adult T-cell leukaemia-lymphoma; dose not given): 21%
COc1ccc(-c2cncc(N[C@@H](C)c3cccc(NC(=O)c4cncc(C)c4)c3)n2)cc1OC — delta delta Ct (refers to: rno-miR-374-5p; rat SU5416/hypoxia model, lung; dose not given, unit not given; reference: SU5416/hypoxia vehicle): 0.317
CSCCNc1nc(SCCC(F)(F)F)nc2c1ncn2[C@@H]1O[C@H](COP(=O)(O)OP(=O)(O)C(Cl)(Cl)P(=O)(O)O)[C@@H](O)[C@H]1O — patients with inhibition above threshold (platelet aggregation, light transmission aggregometry; human patients, platelet-rich plasma; dose not given, 15 min, inhibition threshold 90%, with: ADP 5 µM): 5%
CO[C@@H](C(=O)N1Cc2n[nH]c(NC(=O)c3ccc(N4CCN(C)CC4)cc3)c2C1)c1ccccc1 — discontinuation due to disease progression (patients with advanced solid tumours; dose not given, with: G-CSF): 88%
CN(C)C(=O)c1cc2cnc(Nc3ccc(N4CCNCC4)cn3)nc2n1C1CCCC1 — GSEA enrichment score (RNA-seq GSEA, refers to: HALLMARK_HEDGEHOG_SIGNALING; MB002 tumour; concentration not given, in vivo; reference: vehicle, direction not given): -0.498
C=CCn1c(=O)c2cnc(Nc3ccc(N4CCN(C)CC4)cc3)nc2n1-c1ccc2c(n1)[C@@](O)(CC)CC2 — tumour growth inhibition (COLO 205 xenograft, BALB/c nude mice; oral, 60 mg/kg once daily x 22, day 21; reference: vehicle): 30%
C[C@@H](NC(=O)N1C(=O)[C@H](Cc2ccnc(N)c2)[C@H]1C(=O)O)C1CCCCC1 — time to aPTT Emax (human; iv infusion, 1.5 mg/kg/h, 24 h): 72 h
Cc1cc(C)c(CNC(=O)c2cc(Cl)c3c(c2C)O[C@@](C)([C@H]2CC[C@H](N(C)C)CC2)O3)c(=O)[nH]1 — best overall response PD (relapsed/refractory NHL patients, PTCL; oral, dose not given): 23.1%
CC[C@H](CC[C@@H](C)[C@H]1CC[C@H]2[C@@H]3CC=C4C[C@@H](O[C@@H]5O[C@H](CO)[C@@H](O)[C@H](O)[C@H]5O)CC[C@]4(C)[C@H]3CC[C@]12C)C(C)C — lipid content (Oil Red O; 3T3-L1, mouse; 5 µM, day 8): decreased
NC(=O)c1cnc2[nH]ccc2c1N[C@@H]1[C@@H]2CC3C[C@H]1C[C@@](O)(C3)C2 — change from baseline (flow cytometry, refers to: CD4+ effector T cells; Japanese healthy subjects, peripheral blood; oral, 100 mg twice daily, day 7): -0.18%
Nc1cccc2c1C(=O)N(C1CCC(=O)NC1=O)C2=O (stereo not shown) — exchange rate constant (deuterium-hydrogen exchange; aqueous phosphate buffer; pH 7.4, 37 °C): -0.0164 h⁻¹
CC(C)NCC(O)c1ccc(O)c(O)c1 (stereo not shown) — sarcomere length (ventricular cardiomyocytes, C57BL/6 mouse; dose not given, 0.376 s): 1.72 µm
C[C@@H](O)CCOC(=O)C[C@@H](C)O — metabolite level (refers to: C12:1 acylcarnitine; human, plasma; 60 min, log2-transformed values): -3.87 ± 0.68 µmol/L
c1ccc(-c2n[nH]cc2-c2ccnc3ccccc23)nc1 — log2 fold change (kinase binding, competitor, MIB/MS competition, refers to: TOR1; Candida albicans cell lysate; 100 nM; reference: DMSO): 0.801

A few entries again:
CC(C)[C@H](NC(=O)[C@H](Cc1ccc(O)cc1)NC(=O)[C@H](Cc1ccc(O)cc1)NC(=O)[C@@H]1CCCN1C(=O)[C@H](CCC(=O)O)NC(=O)[C@H](CCC(=O)O)NC(=O)[C@H](Cc1c[nH]c2ccccc12)NC(=O)[C@@H]1CCCN1C(=O)[C@@H](NC(=O)[C@H](CCC(N)=O)NC(=O)c1ccc2c(c1)C(=O)OC21c2ccc(O)cc2Oc2cc(O)ccc21)C(C)C)C(=O)N[C@H](C(=O)N[C@@H](CCCCN)C(=O)N[C@@H](CCCCN)C(=O)N[C@@H](CO)C(=O)N[C@@H](CO)C(=O)NCC(=O)NCC(N)=O)C(C)C — share of responses (nerve branching; human head and neck surgery, nerves; 500 mg, much improved; reference: white light): 0%
COc1ccc(F)cc1C(=O)NCc1ccc(-c2nn([C@@H](C)C(F)(F)F)c(N)c2C(N)=O)cc1 — best overall response CR (relapsed/refractory CLL patients; dose not given, patients with longitudinal samples): 2%
N#Cc1ccc2c(c1)[C@H]1CCCN(C(=O)c3ccc4[nH]cnc4c3)[C@H]1C2 — change in fasting insulin (human, plasma; 160 mg, day 15, 360 h; reference: placebo and baseline): 7.5%
N#Cc1ccn2c(-c3ccncc3)c(-c3ccc(F)cc3)nc2c1 — log2 fold change (kinase binding, competitor, MIB/MS competition, refers to: YAK1; Candida albicans cell lysate; 10 µM; reference: DMSO): 0.544
CN[C@@H]1COc2c(S(=O)(=O)NC(=O)Nc3c4c(cc5c3CCC5)CCC4)cnn2C1 — inhibition (refers to: IL-1β; human participants, whole blood ex vivo; 300 mg twice daily, multiple doses, 144 h, with: LPS/ATP; reference: baseline): 96.2%
CC(=O)Nc1ccc(O)cc1 — gene expression (RNA-seq pathway analysis, refers to: drug degradation pathway genes; liver spheroids; top non-cytotoxic, 10 d): decreased
O=C1Nc2cc3[nH]nc(-c4ccncc4)c3cc2CN1Cc1ccccc1 — stable disease, best response (RECIST v1.1; human, relapsed or refractory advanced solid tumours; intravenous, 3.6 mg/kg): 100%
